Measured values from different studies.
A part holds a random share of what one study measured.

Study 1
Target: Sal-like protein 4, full length isoform A (SALL4, Homo sapiens, UniProt Q9UJQ4, residues 1-1053)
Sequence of UniProt Q9UJQ4 (whole entry, looked up): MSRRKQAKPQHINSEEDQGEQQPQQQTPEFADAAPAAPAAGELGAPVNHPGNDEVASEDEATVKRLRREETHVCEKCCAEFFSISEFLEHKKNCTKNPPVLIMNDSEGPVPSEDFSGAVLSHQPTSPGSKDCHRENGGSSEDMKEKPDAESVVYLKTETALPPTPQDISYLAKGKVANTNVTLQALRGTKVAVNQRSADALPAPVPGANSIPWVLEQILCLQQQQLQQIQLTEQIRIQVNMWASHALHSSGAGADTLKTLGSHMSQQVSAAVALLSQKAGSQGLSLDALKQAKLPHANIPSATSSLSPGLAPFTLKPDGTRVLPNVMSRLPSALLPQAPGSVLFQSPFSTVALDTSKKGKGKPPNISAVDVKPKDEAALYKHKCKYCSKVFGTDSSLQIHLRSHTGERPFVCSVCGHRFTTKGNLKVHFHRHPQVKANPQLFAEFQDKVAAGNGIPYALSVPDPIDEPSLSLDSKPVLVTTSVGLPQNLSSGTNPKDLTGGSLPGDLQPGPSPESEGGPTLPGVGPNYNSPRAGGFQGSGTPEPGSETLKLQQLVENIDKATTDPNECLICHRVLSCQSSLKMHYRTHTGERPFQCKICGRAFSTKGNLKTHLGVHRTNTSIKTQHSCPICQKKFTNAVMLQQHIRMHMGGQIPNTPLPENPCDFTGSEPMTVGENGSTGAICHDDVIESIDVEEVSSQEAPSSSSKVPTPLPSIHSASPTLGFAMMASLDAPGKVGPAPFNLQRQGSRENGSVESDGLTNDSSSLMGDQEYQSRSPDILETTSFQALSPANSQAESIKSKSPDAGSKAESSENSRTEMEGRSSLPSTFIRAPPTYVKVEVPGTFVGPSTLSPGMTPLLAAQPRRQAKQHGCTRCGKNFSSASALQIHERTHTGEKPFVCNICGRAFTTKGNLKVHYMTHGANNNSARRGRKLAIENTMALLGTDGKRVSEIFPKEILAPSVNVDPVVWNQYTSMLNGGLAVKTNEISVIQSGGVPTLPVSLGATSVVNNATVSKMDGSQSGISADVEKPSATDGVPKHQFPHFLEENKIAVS
Technique: universal PBM
Molecule type: double-stranded DNA, one strand shown
Sample: in vitro
Concentration: 600 nM
Setting: 8-mer, flanks averaged, mean of replicates
Reading: higher = stronger binding
Quantity: E-score
GCGGTGGA: -0.279
GTTTTAAA: 0.24
ATTCGAAG: 0.0612
CAACTGAG: 0.0717
AAGCTTGG: -0.14

Study 2
Target: Prothrombin, mature alpha-thrombin (F2, Homo sapiens, UniProt P00734)
Technique: aptamer microarray, sandwich
Molecule type: DNA with 2'F-ANA
Sample: in vitro
Concentration: 200 nM
Setting: whole 15-mer aptamer, many near background
Together with: Cy3 exosite-II aptamer, 400 nM
Reading: higher = stronger binding
Quantity: mean fluorescence intensity
Strand: GGTTGGTGTGGTTGG
2'F-ANA at 5 6 7 10 11 12 14: 48.3 a.u.
2'F-ANA at 1 3 4 7 8 9 10 11 12 13: 77.5 a.u.
2'F-ANA at 2 3 4 7 10 11 14 15: 186 a.u.
2'F-ANA at 1 3 5 6 11 15: 54.5 a.u.
2'F-ANA at 2 3 5 7 9 10 11 12 14: 48.4 a.u.

Study 3
Target: Histone acetyltransferase KAT6A, winged helix 1, GST fusion (KAT6A, Homo sapiens, UniProt Q92794, residues 1-85)
Technique: protein binding microarray
Molecule type: double-stranded DNA, one strand shown
Sample: in vitro
Concentration: not given
Setting: 8-mer, flanks averaged, mean of 2 arrays, mostly near background
Relative to: not given
Reading: higher = stronger binding
Quantity: E-score
Target sequence (chain): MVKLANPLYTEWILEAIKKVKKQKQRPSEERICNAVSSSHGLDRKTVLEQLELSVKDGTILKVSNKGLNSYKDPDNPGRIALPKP
AACCTACC: -0.152
CAGCCTGC: -0.063
GGGATCCA: 0.123
TAGGGCAA: -0.101
TCCCACAA: -0.135
AGGGGACC: -0.0231

Further values, each from its own experiment
PhoQ, residues 284 288 289 292 302 303 QWGLFV
fold induction (PhoP, residues 12 14 15 18 19 AWHSL (Escherichia coli, UniProt P23836); Sort-seq, measured: YFP reporter; E. coli; PhoQ-PhoP variant library, together with: 10 µM Mg2+; relative to: high Mg2+ state, higher = stronger signaling): 2.47

Some of these lines once more (study 1):
ATTCGAAG: 0.0612
CAACTGAG: 0.0717
AAGCTTGG: -0.14
